Measured values collected from several papers.
Numbered parts are unrelated; each lists some results of a single study. “And” joins repeats or separate records; there may be more than shown.
UniProt P07333, sequence (whole entry, looked up): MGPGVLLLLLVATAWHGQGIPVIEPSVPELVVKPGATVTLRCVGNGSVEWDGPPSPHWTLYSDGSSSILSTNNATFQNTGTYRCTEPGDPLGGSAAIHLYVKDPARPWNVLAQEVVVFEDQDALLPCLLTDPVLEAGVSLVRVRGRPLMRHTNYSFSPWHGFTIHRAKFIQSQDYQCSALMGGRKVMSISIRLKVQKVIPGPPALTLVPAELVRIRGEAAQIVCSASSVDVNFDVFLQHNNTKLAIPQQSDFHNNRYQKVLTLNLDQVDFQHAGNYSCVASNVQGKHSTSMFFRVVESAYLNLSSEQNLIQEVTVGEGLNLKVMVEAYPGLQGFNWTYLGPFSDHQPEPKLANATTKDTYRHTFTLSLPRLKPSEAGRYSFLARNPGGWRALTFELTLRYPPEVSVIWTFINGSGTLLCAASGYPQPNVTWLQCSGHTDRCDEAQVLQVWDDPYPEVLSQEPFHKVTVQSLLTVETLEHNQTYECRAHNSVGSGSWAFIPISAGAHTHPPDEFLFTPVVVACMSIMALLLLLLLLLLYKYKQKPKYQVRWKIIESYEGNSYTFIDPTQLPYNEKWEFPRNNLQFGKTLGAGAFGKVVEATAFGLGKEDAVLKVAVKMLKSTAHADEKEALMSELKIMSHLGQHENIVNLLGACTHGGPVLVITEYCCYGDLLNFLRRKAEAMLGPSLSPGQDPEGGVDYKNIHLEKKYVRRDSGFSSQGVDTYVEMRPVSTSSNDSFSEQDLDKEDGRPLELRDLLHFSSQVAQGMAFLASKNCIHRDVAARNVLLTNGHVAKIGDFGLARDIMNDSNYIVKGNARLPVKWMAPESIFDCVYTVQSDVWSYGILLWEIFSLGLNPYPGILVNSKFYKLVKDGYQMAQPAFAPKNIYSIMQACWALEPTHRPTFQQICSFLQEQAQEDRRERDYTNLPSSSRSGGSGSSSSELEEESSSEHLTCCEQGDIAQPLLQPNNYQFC
UniProt P36894, sequence (whole entry, looked up): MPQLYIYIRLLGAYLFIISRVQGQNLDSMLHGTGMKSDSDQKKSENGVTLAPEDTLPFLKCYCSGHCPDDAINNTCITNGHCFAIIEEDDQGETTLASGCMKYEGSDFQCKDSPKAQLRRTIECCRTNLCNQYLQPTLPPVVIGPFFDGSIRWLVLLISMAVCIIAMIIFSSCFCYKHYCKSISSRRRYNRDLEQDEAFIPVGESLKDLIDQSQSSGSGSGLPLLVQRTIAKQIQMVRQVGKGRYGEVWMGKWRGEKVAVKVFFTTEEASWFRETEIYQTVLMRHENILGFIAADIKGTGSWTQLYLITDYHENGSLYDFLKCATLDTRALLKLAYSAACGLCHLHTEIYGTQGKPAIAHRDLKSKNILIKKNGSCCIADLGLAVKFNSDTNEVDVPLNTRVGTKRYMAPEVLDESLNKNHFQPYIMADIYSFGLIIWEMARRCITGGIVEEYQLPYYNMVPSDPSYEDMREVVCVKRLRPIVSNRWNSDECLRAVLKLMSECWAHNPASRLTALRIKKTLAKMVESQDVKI
UniProt P42679, sequence (whole entry, looked up): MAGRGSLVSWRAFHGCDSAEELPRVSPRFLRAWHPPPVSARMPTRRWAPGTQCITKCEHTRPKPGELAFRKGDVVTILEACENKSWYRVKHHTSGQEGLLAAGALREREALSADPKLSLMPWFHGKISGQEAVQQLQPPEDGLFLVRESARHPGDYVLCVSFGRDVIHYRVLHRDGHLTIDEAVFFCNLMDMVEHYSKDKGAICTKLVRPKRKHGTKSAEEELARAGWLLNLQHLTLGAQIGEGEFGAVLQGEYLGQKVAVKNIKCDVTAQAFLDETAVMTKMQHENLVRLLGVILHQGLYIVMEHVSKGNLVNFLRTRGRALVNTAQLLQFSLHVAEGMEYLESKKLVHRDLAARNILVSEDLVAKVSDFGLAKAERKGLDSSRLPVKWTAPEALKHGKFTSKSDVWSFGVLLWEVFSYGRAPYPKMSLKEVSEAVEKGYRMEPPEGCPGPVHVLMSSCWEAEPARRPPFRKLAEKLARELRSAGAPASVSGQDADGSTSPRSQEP
UniProt Q9H4B4, sequence (whole entry, looked up): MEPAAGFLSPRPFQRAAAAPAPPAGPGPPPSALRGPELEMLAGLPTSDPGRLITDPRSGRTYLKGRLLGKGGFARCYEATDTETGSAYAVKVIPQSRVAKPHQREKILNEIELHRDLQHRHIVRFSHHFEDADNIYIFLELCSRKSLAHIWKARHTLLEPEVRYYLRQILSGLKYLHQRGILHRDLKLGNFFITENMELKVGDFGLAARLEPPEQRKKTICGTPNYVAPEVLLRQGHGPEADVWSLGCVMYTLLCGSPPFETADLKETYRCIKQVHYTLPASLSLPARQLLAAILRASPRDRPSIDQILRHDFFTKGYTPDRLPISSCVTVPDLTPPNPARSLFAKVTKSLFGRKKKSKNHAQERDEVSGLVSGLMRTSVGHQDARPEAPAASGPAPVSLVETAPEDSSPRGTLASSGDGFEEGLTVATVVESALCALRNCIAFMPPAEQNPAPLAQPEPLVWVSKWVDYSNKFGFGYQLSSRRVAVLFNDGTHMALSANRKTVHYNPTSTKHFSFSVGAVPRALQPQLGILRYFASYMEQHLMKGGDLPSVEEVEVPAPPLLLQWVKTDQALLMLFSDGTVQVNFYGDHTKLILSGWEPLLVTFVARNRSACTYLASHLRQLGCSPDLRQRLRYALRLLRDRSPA
UniProt P07949, sequence (whole entry, unmodified, looked up): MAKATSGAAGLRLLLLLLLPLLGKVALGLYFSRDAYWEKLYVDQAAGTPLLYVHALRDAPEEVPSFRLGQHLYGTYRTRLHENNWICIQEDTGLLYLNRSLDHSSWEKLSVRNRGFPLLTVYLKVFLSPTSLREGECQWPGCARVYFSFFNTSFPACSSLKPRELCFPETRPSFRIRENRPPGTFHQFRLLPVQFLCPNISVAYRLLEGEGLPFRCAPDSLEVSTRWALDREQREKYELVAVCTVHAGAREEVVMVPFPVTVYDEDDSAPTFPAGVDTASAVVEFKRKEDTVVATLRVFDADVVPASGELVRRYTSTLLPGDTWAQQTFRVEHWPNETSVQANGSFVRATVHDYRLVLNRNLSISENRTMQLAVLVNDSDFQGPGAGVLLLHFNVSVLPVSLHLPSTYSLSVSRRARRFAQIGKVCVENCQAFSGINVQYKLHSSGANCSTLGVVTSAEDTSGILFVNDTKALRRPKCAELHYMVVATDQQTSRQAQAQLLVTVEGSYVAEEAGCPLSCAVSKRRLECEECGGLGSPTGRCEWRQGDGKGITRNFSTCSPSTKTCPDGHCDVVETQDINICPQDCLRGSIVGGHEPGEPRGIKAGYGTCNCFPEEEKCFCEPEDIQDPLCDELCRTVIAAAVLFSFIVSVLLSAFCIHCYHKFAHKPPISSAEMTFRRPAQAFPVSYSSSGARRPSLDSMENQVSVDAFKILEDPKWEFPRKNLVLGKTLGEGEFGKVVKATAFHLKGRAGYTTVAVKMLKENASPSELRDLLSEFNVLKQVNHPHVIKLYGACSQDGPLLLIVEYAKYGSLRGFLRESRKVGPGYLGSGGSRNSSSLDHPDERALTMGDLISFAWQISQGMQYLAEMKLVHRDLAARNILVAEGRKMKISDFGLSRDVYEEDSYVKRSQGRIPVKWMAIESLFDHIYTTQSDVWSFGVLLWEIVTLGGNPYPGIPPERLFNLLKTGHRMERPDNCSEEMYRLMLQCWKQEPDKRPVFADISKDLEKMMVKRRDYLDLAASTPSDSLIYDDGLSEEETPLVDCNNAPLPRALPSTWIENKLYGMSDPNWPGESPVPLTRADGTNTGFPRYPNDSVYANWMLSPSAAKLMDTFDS
UniProt P11802, sequence (whole entry, looked up): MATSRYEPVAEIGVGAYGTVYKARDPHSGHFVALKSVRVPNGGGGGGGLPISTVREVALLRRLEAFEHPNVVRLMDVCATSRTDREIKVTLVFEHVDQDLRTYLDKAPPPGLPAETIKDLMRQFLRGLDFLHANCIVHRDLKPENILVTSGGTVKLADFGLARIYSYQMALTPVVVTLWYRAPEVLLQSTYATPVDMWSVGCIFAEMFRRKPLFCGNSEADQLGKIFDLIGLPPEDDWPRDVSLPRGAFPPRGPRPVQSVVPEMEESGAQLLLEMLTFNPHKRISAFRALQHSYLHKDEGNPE
UniProt Q13882, sequence (whole entry, looked up): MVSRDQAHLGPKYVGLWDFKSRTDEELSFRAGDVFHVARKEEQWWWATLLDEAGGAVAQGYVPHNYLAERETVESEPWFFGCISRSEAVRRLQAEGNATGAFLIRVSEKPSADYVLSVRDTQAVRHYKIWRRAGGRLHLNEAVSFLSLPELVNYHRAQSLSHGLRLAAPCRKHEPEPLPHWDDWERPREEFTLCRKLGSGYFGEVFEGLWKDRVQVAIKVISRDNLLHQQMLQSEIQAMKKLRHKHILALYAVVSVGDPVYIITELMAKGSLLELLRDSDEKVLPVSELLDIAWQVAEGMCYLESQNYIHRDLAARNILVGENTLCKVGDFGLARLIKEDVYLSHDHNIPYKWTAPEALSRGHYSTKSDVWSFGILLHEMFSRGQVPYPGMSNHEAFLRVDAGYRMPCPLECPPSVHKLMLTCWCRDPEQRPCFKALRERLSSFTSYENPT

Series 1 — method: competition with immobilised ligand; concentration: 1 µM
SMILES: CO[C@H]1CC[C@H](CNc2ccc(S(=O)(=O)NC(=O)c3ccc(N4CCN(CC5=C(c6ccc(Cl)cc6)CC(C)(C)CC5)CC4)cc3Oc3cnc4[nH]ccc4c3)cc2[N+](=O)[O-])CC1
| target | assay | remaining binding |
| --- | --- | --- |
| Membrane-associated tyrosine- and threonine-specific cdc2-inhibitory kinase (PKMYT1, Homo sapiens, UniProt Q99640) | cell-free assay | 100% |
| Bone morphogenetic protein receptor type-1A (BMPR1A, Homo sapiens, UniProt P36894) | binding | 57% |
| Macrophage colony-stimulating factor 1 receptor (CSF1R, Homo sapiens, UniProt P07333) | cell-free assay | 86% |
| Cyclin-dependent kinase 4 (CDK4, Homo sapiens, UniProt P11802) | cell-free assay | 100% |
| Megakaryocyte-associated tyrosine-protein kinase (MATK, Homo sapiens, UniProt P42679) | cell-free assay | 89% |
| Mitotic checkpoint serine/threonine-protein kinase BUB1 (BUB1, Homo sapiens, UniProt O43683) | cell-free assay | 73% |
| Protein-tyrosine kinase 6 (PTK6, Homo sapiens, UniProt Q13882) | cell-free assay | 100% |
| Phosphatidylinositol 4-phosphate 5-kinase type-1 alpha (PIP5K1A, Homo sapiens, UniProt Q99755) | cell-free assay | 86% |
| cAMP-dependent protein kinase catalytic subunit beta (PRKACB, Homo sapiens, UniProt P22694) | cell-free assay | 88% |
| Mitogen-activated protein kinase kinase kinase kinase 3 (MAP4K3, Homo sapiens, UniProt Q8IVH8) | cell-free assay | 99% |
| Proto-oncogene tyrosine-protein kinase receptor Ret (RET, Homo sapiens, UniProt P07949, V804M) | cell-free assay | 93% |
| Tyrosine-protein kinase receptor TYRO3 (TYRO3, Homo sapiens, UniProt Q06418) | cell-free assay | 84% |
| Phosphatidylinositol 4,5-bisphosphate 3-kinase catalytic subunit alpha isoform (PIK3CA, Homo sapiens, UniProt P42336, E545K) | cell-free assay | 96% |
| Serine/threonine-protein kinase PLK3 (PLK3, Homo sapiens, UniProt Q9H4B4) | cell-free assay | 100% |
| Vascular endothelial growth factor receptor 3 (FLT4, Homo sapiens, UniProt P35916) | cell-free assay | 89% |

Series 2 — mode: agonist
Target: Beta-1 adrenergic receptor (ADRB1, Homo sapiens, UniProt P08588)
UniProt P08588, sequence (whole entry, looked up): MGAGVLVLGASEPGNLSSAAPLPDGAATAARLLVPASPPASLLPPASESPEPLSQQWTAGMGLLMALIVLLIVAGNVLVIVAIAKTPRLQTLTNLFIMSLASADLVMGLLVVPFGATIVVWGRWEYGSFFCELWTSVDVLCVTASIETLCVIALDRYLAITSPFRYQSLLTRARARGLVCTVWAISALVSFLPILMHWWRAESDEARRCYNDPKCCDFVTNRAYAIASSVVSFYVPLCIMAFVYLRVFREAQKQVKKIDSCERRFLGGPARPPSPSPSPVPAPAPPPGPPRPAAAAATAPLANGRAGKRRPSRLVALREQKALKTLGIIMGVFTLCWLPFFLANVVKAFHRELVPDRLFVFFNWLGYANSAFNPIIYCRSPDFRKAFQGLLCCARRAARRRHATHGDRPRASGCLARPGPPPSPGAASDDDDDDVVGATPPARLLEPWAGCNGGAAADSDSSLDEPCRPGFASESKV
| Structure (SMILES) | EC50 [µM] |
| --- | --- |
| COc1ccccc1N1CCN(C(C)C(=O)Nc2ccc(C(N)=O)cc2)CC1 (stereo not shown) | ≥ 100 |
| COc1ccccc1C(=O)Nc1ccc(C(O)[C@H]2COCC(=O)N2)cc1 (stereo partly shown) | ≥ 100 |
| COc1ccccc1N1CCN(C(=O)c2ccc(C)n2C)CC1 | ≥ 100 |
| CN(C)c1cccc(-c2ncc3c(n2)OCCN(c2ccccc2)C3=O)c1 | ≥ 100 |
| O=C1c2cnc(-c3ccccc3F)nc2OCCN1c1cccc(C(F)(F)F)c1 | ≥ 100 |
| COc1ccccc1CN[C@H]1[C@H](O)[C@@H](N2CCN(c3ccccc3OC)CC2)[C@@H]2OC[C@H]1O2 | ≥ 100 |
| COc1cccc(F)c1-c1ncc2c(n1)OCCN(c1cccc(C(F)(F)F)c1)C2=O | ≥ 100 |

Series 3 — host: human; matrix: microsomes or S9; concentration: 2 µM; time: 0.5 h
| SMILES | remaining compound [%] |
| --- | --- |
| O=[N+]([O-])c1c(Nc2cc(F)cc(Cl)c2)ccc2nonc12 | > 99.9 |
| Cc1cc(C)c(C)c(S(=O)(=O)N2CCN(CCc3cn(C)nn3)CC2)c1C | 3.94 |
| COc1ccc(C(Nc2nc(C)cc(C)n2)c2c(NC(=O)c3ccco3)sc(C)c2C)c(OC)c1 (stereo not shown) | 0.261 |
| Cc1cc2c(cc1S(=O)(=O)N(C)CC1OC3CCCCC3c3sccc31)NC(=O)CO2 (stereo not shown) | 85.8 |
| N[C@@H](CC(=O)N1CCCCCN1C(=O)CN1CCc2ccccc2C1)Cc1cc(F)c(F)cc1F | 11.3 |
| COC(=O)CC1C(=O)NCCN1S(=O)(=O)c1ccc(F)c(Cl)c1 (stereo not shown) | 59.2 |
| CC(C)c1nn(C)c(Cl)c1CNCc1ccccc1CO | 71.8 |

Series 4 — method: phase 2a clinical trial
Compound: CC(C)n1cnc(-c2ccc(F)cc2)c1-c1ncc(C(=O)Nc2ccc(N3CCN(C)CC3)cc2)[nH]1
Host: patients with idiopathic pulmonary fibrosis
| assay | setting | patients with treatment-emergent adverse events [%] |
| --- | --- | --- |
| measured: left bundle branch block | 60 mg once daily, Grade 2 | 0 |
| measured: electrocardiogram high voltage | 60 mg once daily, Grade 2 | 0 |
| measured: investigations (SOC) | 30 mg once daily, Grade 5 | 0 |
| measured: aspartate aminotransferase increased | dose not given, Grade 5, all drug arms total | 0 |

Further values, each from its own experiment
| Compound | cell line | assay | setting | quantity | result |
| --- | --- | --- | --- | --- | --- |
| CC[C@@H](C)c1nc2cc(Nc3ccnc4ccc(S(=O)(=O)C(C)C)cc34)ccc2s1 | L929 | TNF-α-induced necroptosis, inhibitor, CCK-8 | with: TNF-α, zVAD | EC50 | 3.9 µM and 6.91 µM and 3.67 µM |

A few entries again (series 1):
| target | assay | remaining binding |
| --- | --- | --- |
| cAMP-dependent protein kinase catalytic subunit beta (PRKACB, Homo sapiens, UniProt P22694) | cell-free assay | 88% |
| Megakaryocyte-associated tyrosine-protein kinase (MATK, Homo sapiens, UniProt P42679) | cell-free assay | 89% |
| Protein-tyrosine kinase 6 (PTK6, Homo sapiens, UniProt Q13882) | cell-free assay | 100% |
| Vascular endothelial growth factor receptor 3 (FLT4, Homo sapiens, UniProt P35916) | cell-free assay | 89% |
| Proto-oncogene tyrosine-protein kinase receptor Ret (RET, Homo sapiens, UniProt P07949, V804M) | cell-free assay | 93% |
